Published values gathered from unrelated publications.
Each line is one published result; not all experiments were run side by side. ± marks the error that the study gave.

For Cc1cc(SCc2sc(-c3ccc(F)nc3)nc2C)ccc1OCC(=O)O, CC50 read “not toxic” (HEK293T; 18 h).
For COC(=O)[C@@H]1C(C=Nc2cc(Cl)ccc2O)=Cc2cc3c(cc2[C@H]1c1cc(OC)c(OC)c(OC)c1)OCO3, the CC50 was 79.3 ± 7.9 µM (mouse splenocytes uninfected; Alamar Blue; 48 h).
CC(C)n1nnc(-c2cc(O)cc(Nc3ncnn4ccc(CN5CCC(N)CC5)c34)c2)n1 — result for “total plasma concentration”: 2.5 ± 2.1 µM (mouse, plasma; subcutaneous, 10 mg/kg, 90 min).
CCCSc1nc(N[C@@H]2C[C@H]2c2ccc(F)c(F)c2)c2nnn([C@@H]3C[C@H](O)[C@@H](O)[C@H]3O)c2n1 has an AUC of 16.3 µM·h (rat, male, plasma; oral, 20 mg/kg/day ticagrelor, week 26).
Cc1n[nH]c(C)c1CCOC(=O)c1cccc2c1oc(=O)n2C gave an AUC(0-t) of 7200 ng·h/mL (BALB/c mouse, plasma; oral, 10 mg/kg).
The AUC(0-t) of Nc1ncc(-c2ccc3ncnc(N4CCc5cc(F)c(Cl)cc54)c3c2)cn1 is reported as 39500 ng·h/mL (CD1 mouse, plasma; intraperitoneal, 50 mg/kg).
Cc1cc(SCc2sc(-c3ccc4c(c3)OCO4)nc2C)ccc1OCC(=O)O has a CC50 of > 50 µM (HEK293T; 18 h).
The CC50 of CCCCNCC1=Cc2cc3c(cc2[C@@H](c2cc(OC)c(OC)c(OC)c2)[C@@H]1C(=O)OC)OCO3 is reported as 6.6 ± 0.4 µM (HepG2; Alamar Blue; 48 h).
For Cc1cc(SCc2sc(-c3ccc(C(F)(F)F)nc3)nc2C)ccc1OCC(=O)O, the CC50 was > 100 µM (HEK293T; 18 h).
COC(=O)[C@@H]1C(c2nc3cc(Cl)ccc3o2)=Cc2cc3c(cc2[C@H]1c1cc(OC)c(OC)c(OC)c1)OCO3 gave a CC50 of > 100 µM (mouse splenocytes uninfected; Alamar Blue; 48 h).
For COc1ccc(CC(=O)OCc2ccc(-n3cccn3)cc2)cc1F, the clearance was 3.21 mL/min/kg (BALB/c mouse, plasma; intravenous, 2 mg/kg).
COc1ccc(-c2nc(C)c(CSc3ccc(OCC(=O)O)c(C)c3)s2)cc1OC has a CC50 of > 100 µM (HEK293T; 18 h).

Some of these lines once more:
CCCSc1nc(N[C@@H]2C[C@H]2c2ccc(F)c(F)c2)c2nnn([C@@H]3C[C@H](O)[C@@H](O)[C@H]3O)c2n1 has an AUC of 16.3 µM·h (rat, male, plasma; oral, 20 mg/kg/day ticagrelor, week 26).
Cc1cc(SCc2sc(-c3ccc4c(c3)OCO4)nc2C)ccc1OCC(=O)O has a CC50 of > 50 µM (HEK293T; 18 h).
